Published values from different studies.
Parts stem from different laboratories: compare values within a part only.

Block 1
Target: Histone acetyltransferase KAT6A, winged helix 2, GST fusion (KAT6A, Homo sapiens, UniProt Q92794, residues 85-181)
Technique: protein binding microarray
Form: double-stranded DNA, one strand shown
Matrix: in vitro
Concentration: not given
Notes: 8-mer, flanks averaged, mean of 2 arrays, mostly near background
Relative to: not given
Direction: higher = stronger binding
Target sequence (chain): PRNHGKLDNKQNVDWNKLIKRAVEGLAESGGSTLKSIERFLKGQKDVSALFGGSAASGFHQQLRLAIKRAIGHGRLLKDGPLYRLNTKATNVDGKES
| Sequence | E-score |
| --- | --- |
| CATGTATC | -0.186 |
| CCCGCTAG | 0.175 |
| GACGTGTA | -0.321 |
| GACCCCTA | -0.212 |
| GCTTACCC | 0.0676 |
| CACACAGA | 0.14 |
| GCTTCTGA | 0.0859 |
| CACCAGGC | 0.2 |
| TCTATGCA | 0.0201 |
| TACTAAGA | 0.0994 |
| CCCGTTCG | 0.124 |
| CGGCACTC | 0.038 |
| CGCATTTC | 0.168 |
| AGGAGGAC | -0.171 |
| CAAATGAG | -0.0506 |
| AGAAGACG | -0.00592 |
| CCTATACG | -0.143 |
| ACTGGCCA | -0.101 |
| GGTTCTAA | 0.00381 |
| CAAGTGAG | -0.11 |
| ATACAGAT | -0.0497 |
| TCGCACAA | 0.0324 |
| CGCTTAAC | 0.111 |
| AACTGACG | -0.0264 |
| GCGATTCA | -0.0174 |

Block 2
Target: RNA binding protein fox-1 homolog 2, RRM domain, GST-SBP tag (RBFOX2, Homo sapiens, UniProt O43251-10, residues 100-194)
Technique: RNA Bind-n-Seq
Form: RNA
Matrix: in vitro
Concentration: 365 nM
Notes: natural RNA segment, single round, ends assumed
Relative to: no-protein control
Direction: higher = stronger binding
All sequences stand within: GGGAGUUCUACAGUCCGACGAUC … UGGAAUUCUCGGGUGCCAA
Residues (chain): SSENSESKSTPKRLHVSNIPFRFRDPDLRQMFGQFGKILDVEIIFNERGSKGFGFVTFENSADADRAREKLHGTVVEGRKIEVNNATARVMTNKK
| Sequence | RBNS enrichment (R) |
| --- | --- |
| CCUUAUCAAAUGUGUCUGCAAAUCAAGAUGGUCUAAAGUGCAAGCCAGUUUUUUGUUUGCUUGUUUUUGAAACUGGGUUUAGGGGAUACAGUUGUCAGAAGUGACUCAUU | 1.12 |
| GUUCCUCAGCAGUGUAGAUGAAUUCACAUCAUUUAUGUUUUAACGGCGUUUUUUUGGAAAGCAUAAAUUGUGACAUCAGUUAUCAUGCUACUUCUUGGUGACAUAAUAUA | 0.594 |
| GCUCUCUACCCAGCCCAUCUUGCCUCCAUGGUGCCUCUGGAGGCCUCUGGGCCUCCUCUAACAGGGGCUGGUGGGCACCAAGAGCCAAUGGAGUAGACCCCUGGCUGGUA | 0.393 |
| UAAGCUGUUUCUAAGUGUUUAAAUUUGAAAAGCAUCAUGUUCUCAUGAUUUAUGGGAAUGAAGCAAGUACUGAAAUCAAAUUAAAUACUCCCUGGGUCCUGGGUCAGUUU | 0.508 |
| AUAUUUUGUCAUCAUAAUCUUUAUGGUGGGGGCAGACUUUGCACUUACUGCAGUGCAACACUUGCACUUUAAUUUUCCUCCAACUGUCUAAAAUUAGAGCAAAUACAUUG | 0.321 |
| GCUGAAGGUGGGGCCUAGGGAGGGGGCACUGAAGCAAUCUCCUGCUCCAACGCACAAUCCUUACUGUGCCCUUUCCACCCCCACACUCACACCAAUCUGCAGAAACCUCU | 0.157 |
| UCCGCGCCCAUUGGUGACCCUUCCAGGCAGACAGCCUCAGCAGCGCCCCUGGUGGACAGGAUGGUUCGGCAAAGCAGCCUGAGUUAUUUUUGUGGACGGAAUCGGAACAC | 0.231 |
| AUGUCUAAAGUGAUUAUCUUUUUUCCCCCCAAGUUAGUCUUAAAUCUUUUGGGUUUGAAUGAAGGUUUUACAUAAGAAAUUAUUAAAAACAAGGGGGGUGGGUAAUAAAU | 1.2 |

Block 3
Target: Centromere-binding protein 1, full length, His-tagged (CBF1, Saccharomyces cerevisiae, UniProt P17106, residues 1-351)
Sequence of UniProt P17106 (whole entry, looked up): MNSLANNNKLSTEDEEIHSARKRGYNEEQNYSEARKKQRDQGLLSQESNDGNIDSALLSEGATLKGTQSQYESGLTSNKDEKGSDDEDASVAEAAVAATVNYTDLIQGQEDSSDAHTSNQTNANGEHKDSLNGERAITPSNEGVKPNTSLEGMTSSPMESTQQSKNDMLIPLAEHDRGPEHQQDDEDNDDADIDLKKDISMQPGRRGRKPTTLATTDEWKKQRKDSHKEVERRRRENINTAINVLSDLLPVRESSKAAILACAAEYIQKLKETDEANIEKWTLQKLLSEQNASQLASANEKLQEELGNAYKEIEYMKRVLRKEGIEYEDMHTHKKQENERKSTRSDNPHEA
Technique: competition protein-binding microarray
Form: double-stranded DNA, one strand shown
Matrix: in vitro
Concentration: 2 µM
Notes: whole 60-bp probe, lowest competitor level
With: Pho4 competitor, 0.05 µM
Direction: higher = stronger binding
All sequences stand within: … GTCTTGATTCGCTTGACGCTGCTG
| Sequence | fluorescence intensity |
| --- | --- |
| CGGGGTTAAGTTTGGGCAGTGGGTGGCTTGCAGCAG | 77.1 a.u. |
| TTGGCGACTATTTAGCACGTGAGTATACTTGATTAA | 2990 a.u. |
| TACGTTGGGCGACCAAACGTGGCTGGTTGCCTGTAA | 55.6 a.u. |
| CATACCCAACCTTGGCAAGTGGGTGAAGATATTTGT | 64.3 a.u. |
| CATACCCAACCTTGGCGAGTGGGTGAAGATATTTGT | 67.6 a.u. |
| GCCAGAAGTTCCTGTCACACTCTGCAAATTATCCCG | 95.3 a.u. |
| CTTTCCCGATCTTTTCACGTGCCCTTAGCACATTTG | 1230 a.u. |
| TGCGCAACAACTTGTGGGGTGGGTGTATGTCTAGAA | 70.5 a.u. |
| TGCTGTGTATTAGTTATTAAATCGTCAAAACGATAC | 95.7 a.u. |
| CCTTTAAAGGCCCACCACGTGGCTGCGCGGCCAGCC | 737 a.u. |
| CTTCTGTAAATTTGAGCAGTGGGTGGACGCGCCCCG | 70.3 a.u. |
| GGAACCGTCTGCAGCGATGTGACGGGTCTTGTAACC | 55.9 a.u. |
| AGCCCCTATAGTAGCTTCGTGATGGGGTAGAACTTC | 55.7 a.u. |
| AAAATAGCTGAAATTCACGTGTTGAATTACCGCATC | 914 a.u. |
| TTCTGATAAGCCCATCACGTGACGGTGGTTCTAAGA | 10500 a.u. |
| ATAGCCGAAAGAGGAAATGTGATATGCCCACCTGTG | 103 a.u. |
| TTCCATCTGGGGACCCACATGTGTGGGTTTGGATTG | 66.7 a.u. |
| AAATTACTAAGTTTTCACGTGCACTACCCCGTATGA | 1260 a.u. |
| CTGTTTCTTCTCCATACTTTCAAATATTCAAATTGA | 76.6 a.u. |

Block 4
Target: Sal-like protein 4, full length isoform A (SALL4, Homo sapiens, UniProt Q9UJQ4, residues 1-1053)
Sequence of UniProt Q9UJQ4 (whole entry, looked up): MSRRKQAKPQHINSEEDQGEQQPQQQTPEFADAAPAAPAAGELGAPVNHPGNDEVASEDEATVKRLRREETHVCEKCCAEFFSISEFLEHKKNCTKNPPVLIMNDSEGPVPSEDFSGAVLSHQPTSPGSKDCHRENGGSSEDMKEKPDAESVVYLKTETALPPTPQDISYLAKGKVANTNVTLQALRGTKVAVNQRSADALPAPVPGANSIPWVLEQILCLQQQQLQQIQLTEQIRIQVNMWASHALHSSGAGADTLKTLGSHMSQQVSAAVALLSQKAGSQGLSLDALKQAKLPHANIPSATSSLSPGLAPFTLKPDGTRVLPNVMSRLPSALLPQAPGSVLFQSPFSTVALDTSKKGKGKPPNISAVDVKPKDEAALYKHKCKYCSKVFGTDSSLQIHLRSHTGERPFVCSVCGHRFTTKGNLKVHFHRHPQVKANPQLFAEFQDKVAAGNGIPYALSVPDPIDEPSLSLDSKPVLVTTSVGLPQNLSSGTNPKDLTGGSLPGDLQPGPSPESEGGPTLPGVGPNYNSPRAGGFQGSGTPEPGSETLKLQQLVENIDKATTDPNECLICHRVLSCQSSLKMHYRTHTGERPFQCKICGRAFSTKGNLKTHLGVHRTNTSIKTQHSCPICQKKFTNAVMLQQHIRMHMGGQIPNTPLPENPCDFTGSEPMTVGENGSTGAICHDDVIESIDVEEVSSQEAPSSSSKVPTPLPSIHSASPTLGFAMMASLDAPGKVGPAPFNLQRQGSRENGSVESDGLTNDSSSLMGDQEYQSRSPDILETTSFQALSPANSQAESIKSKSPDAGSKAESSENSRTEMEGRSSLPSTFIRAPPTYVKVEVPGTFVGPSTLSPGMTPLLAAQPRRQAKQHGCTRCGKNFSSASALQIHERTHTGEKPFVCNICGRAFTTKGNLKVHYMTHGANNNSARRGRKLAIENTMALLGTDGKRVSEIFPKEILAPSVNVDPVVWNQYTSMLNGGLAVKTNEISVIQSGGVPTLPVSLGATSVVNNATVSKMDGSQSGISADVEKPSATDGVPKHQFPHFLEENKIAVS
Technique: universal PBM
Form: double-stranded DNA, one strand shown
Matrix: in vitro
Concentration: 600 nM
Notes: 8-mer, flanks averaged, mean of replicates
Direction: higher = stronger binding
| Sequence | E-score |
| --- | --- |
| AGGCACCT | -0.324 |
| AGGTAAAC | 0.156 |
| ATAGATGG | 0.029 |
| ACAGTTCG | -0.0671 |
| CCGACCTC | -0.235 |
| CCGCCCCG | -0.214 |
| CTGAGTGC | -0.196 |
| CCACGAAA | -0.0775 |
| ATCAACAT | 0.31 |
| CGACGTAG | -0.172 |
| CCCTCAAG | -0.0656 |
| ACCAGATC | -0.251 |
| ATCGGGTC | -0.163 |
| ACTTCTTA | 0.154 |
| GGGTGCAC | -0.289 |
| AACAGACA | 0.0579 |
| AGGATTTG | 0.0493 |
| CTAGGCAA | -0.0276 |
| ACCTCCAA | -0.00462 |
| AAGATGAA | 0.152 |

Some of these lines once more (block 4):
| Sequence | E-score |
| --- | --- |
| AACAGACA | 0.0579 |
| CCACGAAA | -0.0775 |
| ATAGATGG | 0.029 |
| ACCAGATC | -0.251 |
| ACAGTTCG | -0.0671 |
| AGGATTTG | 0.0493 |
